# Measured values of several laboratories.
# Lines come from different studies, so protocols differ.
Structure (SMILES),organism,assay,test system,setting,how to read,MIC
COc1cc(C(=O)O)ccc1NC(=O)c1ccc(NC(=O)c2ccc(NC(=O)[C@H](Cc3c[nH]nn3)NC(=O)c3ccc(NC(=O)/C(C)=C/c4ccc(O)cc4)cc3)cc2)cc1O,Enterococcus faecium,broth microdilution,ciprofloxacin-sensitive,,,32 µg/mL
NC[C@@H]1O[C@H](O[C@H]2[C@@H](O)[C@H](O[C@@H]3[C@@H](O)[C@H](N)C[C@H](N)[C@H]3O[C@H]3O[C@@H]4COCO[C@H]4[C@H](O)[C@H]3N)O[C@@H]2CO)[C@H](N)[C@@H](O)[C@@H]1O,Mycolicibacterium smegmatis,"microbial growth, broth dilution",,72 h,,128 µg/mL
CC(=O)NC[C@H]1CN(c2ccc(N3CCN(C(=O)CN)CC3)c(F)c2)C(=O)O1,Salmonella enterica,"microbial growth, broth dilution",TYPHIMURIUM,,,64 µM
C=C/C=C(\C)CC[C@@H](O)C[C@H](O)CC(=O)OC,Salmonella enterica,"microbial growth, broth dilution",ATCC14028 TYPHIMURIUM,,,128 µg/mL
CCOc1c(NC(=O)c2ccc(NC(=O)c3ccc(NC(=O)[C@H](Cc4c[nH]nn4)NC(=O)c4ccc(NC(=O)/C(C)=C/c5ccc(O)cc5)cc4)cc3)c(OC)c2O)ccc(C(=O)O)c1O,Enterococcus faecium,broth microdilution,ciprofloxacin-sensitive,,,0.063 µg/mL
CC1(C)[C@H](NC(=O)/C(=N\OCC(=O)N2CCC(C(=O)O)C2)c2nsc(N)n2)C(=O)N1OS(=O)(=O)O (stereo partly shown),Enterobacter cloacae,agar dilution,CDC 1000654,,,> 64 µg/mL
NC[C@@H]1O[C@H](O[C@H]2[C@@H](O)[C@H](O[C@@H]3[C@@H](O)[C@H](N)C[C@H](N)[C@H]3O[C@H]3O[C@H](CO)[C@@H](OCCO)[C@H](O)[C@H]3N)O[C@@H]2CO)[C@H](N)[C@@H](O)[C@@H]1O,Mycolicibacterium smegmatis,"microbial growth, broth dilution",,72 h,,2 µg/mL
CCOc1c(NC(=O)c2ccc(NC(=O)[C@H](Cc3c[nH]nn3)NC(=O)c3ccc(NC(=O)/C(C)=C/c4ccc(O)cc4)cc3)cc2)ccc(C(=O)Nc2ccc(C(=O)O)c(O)c2OC)c1O,Enterococcus faecium,broth microdilution,ciprofloxacin-sensitive,,,0.063 µg/mL
C=C(NC(=O)c1csc(-c2nc3c(cc2O)-c2nc(cs2)C(=O)NC(C(C)O)C(=O)NC(=C(C)OC)c2nc(cs2)C(=O)NC2c4nc(cs4)C(=O)NC(COC(=O)c4c5c6c(cccc6n4O)COC(=O)C(OC4CC(C)(O)C(N(C)C)C(C)O4)C2OC5)c2nc-3cs2)n1)C(N)=O (stereo not shown),Enterococcus faecium,,"-9, vancomycin-intermediate",,,0.0078 µg/mL
CC1(C)C(NC(=O)C(=NOC2(C(=O)O)CC2)c2csc(N)n2)C(=O)N1OS(=O)(=O)O (stereo not shown),Enterobacter cloacae,agar dilution,CDC 1000654,,,2 µg/mL
CC[C@H](C)[C@@H]1NC(=O)[C@@H]([C@@H](C)O)NC(=O)CNC(=O)[C@H](CC(=O)O)NC(=O)CNC(=O)[C@H](CC(=O)O)NC(=O)CNC(=O)[C@H]2CCCCN2C(=O)[C@@H](NC(=O)[C@H](CC(=O)O)NC(=O)/C=C/CCCCCCCCCC(C)C)CNC(=O)[C@@H]2CCCN2C1=O,Enterococcus,broth microdilution,"VRE 155, Mueller-Hinton broth, Mg2+ 10 mg/L","16 h, together with: Ca2+ 1.0 mM",,8 µg/mL
CO[C@H]1/C=C/O[C@@]2(C)Oc3c(C)c(O)c4c(c3C2=O)C2=NC3(CCN(CC(C)C)CC3)NC2=C(NC(=O)/C(C)=C\C=C\[C@H](C)[C@H](O)[C@@H](C)[C@@H](O)[C@@H](C)[C@H](OC(=O)c2ccccc2)[C@@H]1C)C4=O,Mycobacteroides abscessus,,clinical isolate Bamboo,,90% growth inhibition,0.065 µM
CCCCCCCCCCCCCCCCCCn1cc(CN(CCC(=O)NCCN(CCC(=O)NCCN(CCC(=O)NCCN(C)C)CCC(=O)NCCN(C)C)CCC(=O)NCCN(CCC(=O)NCCN(C)C)CCC(=O)NCCN(C)C)CCC(=O)NCCN(CCC(=O)NCCN(CCC(=O)NCCN(C)C)CCC(=O)NCCN(C)C)CCC(=O)NCCN(CCC(=O)NCCN(C)C)CCC(=O)NCCN(C)C)nn1,Enterobacter cloacae,broth microdilution,"111, LB broth",18 h,,> 96 µg/mL
CC1(C)[C@H](NC(=O)/C(=N\OC2(C(=O)O)CCCCC2)c2csc(N)n2)C(=O)N1OS(=O)(=O)O,Enterobacter cloacae,agar dilution,"ATCC 43560, susceptible",,,1 µg/mL
CCCCO[C@H]1[C@H](O)[C@@H](N)[C@@H](O[C@H]2[C@H](O[C@@H]3O[C@H](CO)[C@@H](O[C@H]4O[C@@H](CN)[C@@H](O)[C@H](O)[C@H]4N)[C@H]3O)[C@@H](O)[C@H](N)C[C@@H]2N)O[C@@H]1CO,Mycolicibacterium smegmatis,"microbial growth, broth dilution",,72 h,,8 to 16 µg/mL
COc1cccc(OC)c1C(=O)N[C@@H]1C(=O)N2[C@@H]1SC(C)(C)[C@@H]2C(=O)O,Salmonella enterica,"microbial growth, broth dilution",TYPHIMURIUM,,,> 128 µM
CC1(C)C(NC(=O)C(=NOCC(=O)N2CC3CCCC3C2C(=O)O)c2csc(N)n2)C(=O)N1OS(=O)(=O)O (stereo not shown),Enterobacter cloacae,agar dilution,"ATCC 43560, susceptible",,,2 µg/mL
CC1C=CC=CC(C)C2C=CC3CC(C)(O)C(Cl)C(C)C3C2C(=O)C(Cl)(Cl)C(=O)C(C)C(=O)O1 (stereo not shown),Staphylococcus aureus,,MRSA clinical isolate,"resistant: OXA,CLI,ERY",,0.025 µg/mL
CC1(C)[C@H](NC(=O)/C(=N\OCc2c(Cl)cccc2Cl)c2nsc(N)n2)C(=O)N1OS(=O)(=O)O,Enterobacter cloacae,agar dilution,"ATCC 43560, susceptible",,,4 µg/mL
CN[C@H](CC(C)C)C(=O)N[C@H]1C(=O)N[C@@H](CC(N)=O)C(=O)N[C@H]2C(=O)N[C@H]3C(=O)N[C@H](C(=O)N[C@H](C(=O)O)c4cc(O)cc(O)c4-c4cc3ccc4O)[C@H](O)c3ccc(c(Cl)c3)Oc3cc2cc(c3O[C@@H]2O[C@H](CO)[C@@H](O)[C@H](O)[C@H]2O[C@H]2C[C@](C)(NCc3ccc(-c4ccc(Cl)cc4)cc3)[C@H](O)[C@H](C)O2)Oc2ccc(cc2Cl)[C@H]1O,Enterococcus faecium,,VanA VRE ATCC BAA-2317,together with: LTA 100 µg/mL,,5 µg/mL
COc1c(NC(=O)c2ccc(NC(=O)c3ccc(NC(=O)[C@H](Cc4c[nH]nn4)NC(=O)c4ccc(NC(=O)/C(C)=C/c5ccc(O)cc5)cc4)cc3)c(OC)c2O)ccc(C(=O)O)c1O,Salmonella enterica,"microbial growth, broth dilution",,,,0.25 µg/mL
C#CCO/N=C(\C(=O)N[C@@H]1C(=O)N(OS(=O)(=O)O)C1(C)C)c1nsc(N)n1,Enterobacter cloacae,agar dilution,CDC 1000654,,,> 64 µg/mL
COc1c(NC(=O)c2ccc(NC(=O)c3ccc(NC(=O)[C@H](CC#N)NC(=O)c4ccc(NC(=O)/C(C)=C/c5ccc(O)cc5)cc4)cc3)c(OC)c2O)ccc(C(=O)O)c1O,Enterococcus faecium,broth microdilution,ciprofloxacin-sensitive,,,2 µg/mL
Cc1c(CN(C)C(=O)/C=C/c2cnc3c(c2)CC(N)C(=O)N3)oc2ccccc12 (stereo not shown),Klebsiella pneumoniae,broth microdilution,AR-0139,,,16 µg/mL
C/C(=C\c1ccc(O)cc1)C(=O)Nc1ccc(C(=O)N[C@@H](Cc2c[nH]nn2)C(=O)Nc2ccc(C(=O)Nc3ccc(C(=O)Nc4ccc(C(=O)O)c(O)c4)c(O)c3)cc2)cc1,Enterococcus faecium,broth microdilution,ciprofloxacin-resistant,,,16 µg/mL
CC1(C)[C@H](NC(=O)/C(=N\OCC(=O)N2CCC[C@@H]2C(=O)O)c2nsc(N)n2)C(=O)N1OS(=O)(=O)O,Enterobacter cloacae,agar dilution,"ATCC 43560, susceptible",,,1 µg/mL
COc1nc(C(=O)Nc2ccc(C(=O)O)nc2OC)ccc1NC(=O)c1ccc(NC(=O)[C@H](Cc2c[nH]nn2)NC(=O)c2ccc(NC(=O)/C(C)=C/c3ccc(O)cc3)cc2)cc1,Enterococcus faecium,broth microdilution,ciprofloxacin-sensitive,,,2 µg/mL
C[C@@H]1C(=O)O[C@@H](C)/C=C/C=C\[C@@H](C)[C@@H]2C=C[C@@H]3C[C@@]4(C)O[C@H]4[C@@H](C)[C@H]3[C@@H]2C(=O)C(Cl)(Cl)C1=O,Staphylococcus aureus,,MRSA clinical isolate,"resistant: OXA,CIP,ERY,GEN,LVX,MXF,SXT,TOB",,0.1 µg/mL
CC1(C)[C@H](NC(=O)/C(=N\OC2(C(=O)O)CCCC2)c2csc(N)n2)C(=O)N1OS(=O)(=O)O,Enterobacter cloacae,agar dilution,"ATCC 43560, susceptible",,,0.5 µg/mL
CC1OCC2OC(OC3C(N)CC(N)C(O)C3OC3OC(CO)C(OC4OC(CN)C(O)C(O)C4N)C3O)C(N)C(O)C2O1 (stereo not shown),Mycolicibacterium smegmatis,"microbial growth, broth dilution",,72 h,,32 µg/mL
COc1c(NC(=O)c2ccc(NC(=O)[C@H](Cc3c[nH]nn3)NC(=O)c3ccc(NC(=O)/C(C)=C/c4ccc(O)cc4)cc3)cc2)ccc(C(=O)Nc2ccc(C(=O)O)c(O)c2)c1O,Enterococcus faecium,broth microdilution,ciprofloxacin-resistant,,,16 µg/mL

# For quick reference, copied from above:
Structure (SMILES),organism,assay,test system,setting,how to read,MIC
CC(=O)NC[C@H]1CN(c2ccc(N3CCN(C(=O)CN)CC3)c(F)c2)C(=O)O1,Salmonella enterica,"microbial growth, broth dilution",TYPHIMURIUM,,,64 µM
C=C/C=C(\C)CC[C@@H](O)C[C@H](O)CC(=O)OC,Salmonella enterica,"microbial growth, broth dilution",ATCC14028 TYPHIMURIUM,,,128 µg/mL
CCOc1c(NC(=O)c2ccc(NC(=O)c3ccc(NC(=O)[C@H](Cc4c[nH]nn4)NC(=O)c4ccc(NC(=O)/C(C)=C/c5ccc(O)cc5)cc4)cc3)c(OC)c2O)ccc(C(=O)O)c1O,Enterococcus faecium,broth microdilution,ciprofloxacin-sensitive,,,0.063 µg/mL
